Published values collected from several papers.
A part holds a random share of what one study measured. Substitutions count along the parent as printed.

Study 1 — method: protein binding microarray; molecule type: double-stranded DNA, one strand shown; matrix: in vitro; concentration: not given; baseline: not given; direction: higher = stronger binding; endpoint: E-score
Target: Histone acetyltransferase KAT6A, both winged helices, GST fusion (KAT6A, Homo sapiens, UniProt Q92794, residues 1-181)
Setting: 8-mer, flanks averaged, mean of 2 arrays, mostly near background
Target sequence (chain): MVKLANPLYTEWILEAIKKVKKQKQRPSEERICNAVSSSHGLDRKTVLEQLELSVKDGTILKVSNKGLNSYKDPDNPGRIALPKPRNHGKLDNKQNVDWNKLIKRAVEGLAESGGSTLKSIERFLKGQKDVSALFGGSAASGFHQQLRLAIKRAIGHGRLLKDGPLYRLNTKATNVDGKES
CCACACTC: -0.0942
CCGGGTGC: 0.237
AGCAAAGG: -0.185
GATTTAGA: -0.0982
AAAGAAGC: 0.013
AACTGAGT: -0.102
GTTGGACA: -0.00736
ACTGCGCT: 0.151
ACCCATGC: 0.00668
CTATAAGC: 0.0487
AAAAGGCA: -0.166
ACTTGGCA: -0.324
CAAGCCCG: 0.187

Study 2 — target: CCND2, cyclin fold, Cln2 fusion (human); method: yeast growth competition, sequencing; matrix: yeast; setting: weak parent motif; baseline: not given; direction: higher = stronger binding; endpoint: normalised enrichment score
Starting sequence: SAMHD1 docking peptide (human); ASKSRVQLFKDDP
ASKARVQLFKDDP [S4A]: 0.248
ASKSRVHLFKDDP [Q7H]: 0.357
ASKSRVWLFKDDP [Q7W]: 0.157
ASKSRVQLFMDDP [K10M]: 0.387
ASKSRVALFKDDP [Q7A]: 0.158
ASKSRVQLFKDHP [D12H]: 0.0335
ASKFRVQLFKDDP [S4F]: 0.33
ASKERVQLFKDDP [S4E]: -0.368
ASKSSVQLFKDDP [R5S]: -0.229

Study 3 — method: RNA Bind-n-Seq; molecule type: RNA; matrix: in vitro; concentration: 365 nM; baseline: no-protein control; direction: higher = stronger binding; endpoint: RBNS enrichment (R)
Target: RNA binding protein fox-1 homolog 2, RRM domain, GST-SBP tag (RBFOX2, Homo sapiens, UniProt O43251-10, residues 100-194)
Setting: natural RNA segment, single round, ends assumed
Shared flanks, not repeated: GGGAGUUCUACAGUCCGACGAUC … UGGAAUUCUCGGGUGCCAA
Construct (chain): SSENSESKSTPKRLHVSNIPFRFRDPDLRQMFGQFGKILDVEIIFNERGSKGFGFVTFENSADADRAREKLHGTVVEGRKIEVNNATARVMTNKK
AAAAGAUGUGGGUGGAUAGUAUAUUUCUACAGGUGGGUCAGGUUUGGUAGCAGUUUGAUGUGCUGGGUUCUGUCAUCUGUUCUGAUGAGAAGAUUUUUAUCUUCUGCAGU: 0.605
GACCUUGCUGCCACAACCUGUGGGGUCUGAUGUGUCCCUUGAUGGGUGCUGCCCUCAGGGACUGCACCCUGACAAGUGUUAAGGCAACAUUCCUUUCUUGUGCCCUGGGC: 0.174
AGAUUUGUUGGAUCUAUUUGGUUUAAAAAGUAUUCUAUCUUAAGGCCAACUAAUAUAAAAUACCAUUGUUAAAGAAUGGUACUUUUAUAAACAUUAGUGUAUUUAUUUCC: 0.328
GCGCCCGGCGUUUGUGCAGGGGUGUCGGGAACGAACGCAGCCAGCGGGCAUCUGUGCGUGCGAGGAGACCCCUUCUCUCGGCCAAGUUUUUUCCCAUAACACCCACAUGG: 0.385
AAACGUACUGCUGGUUGAAUAUCUGAGGUAAAUGAUGUUUAAUCAAGAUGCUACUUGUAUCUUUGUCCAUAAAUUGUAAAUAAUUUUAUGCACAUUAUACCAAAUCUUCC: 0.244
AGUUUGUCAAAUUACUCUUUGGAAUUGAGCCAAAAUCCUAGAGUUGAGUUUUUAUUCUUCCUUCCUUCCAUACAACAAAACAAGUCCAUAGCCUAUGACCCAAGACUGUU: 0.705
UCUGUCUGUCUCUACAUGGAUGGACUGAAUAAGAAUGUAAAUAAUAUUUAUUGCAAAGCAAGCCUGGUCAUACUUGCUGCUUGAGAAGCUGAGGCAGGAGGAUCAUGAAU: 2.17
ACAUCGUAUGUACAAUGCAAUCAUUUCAUACUUUAAACUGGUCAAAAAACUAAUUGUGAUUUCUAGUCUUGCAAAGCUGUAUGUAGUUAGAUGAUGUGACAACCUCUAAU: 0.412

Single results of other studies
PhoQ, residues 284 288 289 292 302 303 TLASMF — fold induction (PhoP, residues 12 14 15 18 19 SYFRT (Escherichia coli, UniProt P23836); Sort-seq, item: YFP reporter; E. coli; PhoQ-PhoP variant library, with: 10 µM Mg2+; baseline: high Mg2+ state, higher = stronger signaling): 2.42

Some of these lines once more (study 1):
CAAGCCCG: 0.187
AACTGAGT: -0.102
GATTTAGA: -0.0982
ACCCATGC: 0.00668
ACTGCGCT: 0.151
